Assay results pooled from the literature.
Compare with care: the assays were run in different laboratories. Numbers after ± are the reported error.
Genome polyprotein NS3 helicase domain: Genome polyprotein, NS3 helicase domain (Hepatitis C virus genotype 1b, UniProt Q9WMX2)
Trypanothione synthetase: Trypanothione synthetase (Leishmania infantum, UniProt A4I2Z3)
gag nucleocapsid protein p7: Gag polyprotein, nucleocapsid protein p7 (gag, Human immunodeficiency virus type 1 group M subtype B, UniProt P04591)
Chain of UniProt P50406 (whole entry, looked up): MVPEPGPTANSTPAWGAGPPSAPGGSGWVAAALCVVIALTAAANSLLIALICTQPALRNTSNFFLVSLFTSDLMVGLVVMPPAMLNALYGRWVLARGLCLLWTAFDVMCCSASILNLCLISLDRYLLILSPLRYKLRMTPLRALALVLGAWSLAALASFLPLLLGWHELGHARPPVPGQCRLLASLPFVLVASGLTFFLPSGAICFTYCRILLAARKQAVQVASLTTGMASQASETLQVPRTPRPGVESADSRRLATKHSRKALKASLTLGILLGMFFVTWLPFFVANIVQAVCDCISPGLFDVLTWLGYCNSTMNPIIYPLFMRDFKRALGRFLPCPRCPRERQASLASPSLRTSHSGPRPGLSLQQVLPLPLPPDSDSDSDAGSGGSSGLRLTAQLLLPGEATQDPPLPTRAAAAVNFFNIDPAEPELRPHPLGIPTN
Chain of UniProt P62593 (whole entry, looked up): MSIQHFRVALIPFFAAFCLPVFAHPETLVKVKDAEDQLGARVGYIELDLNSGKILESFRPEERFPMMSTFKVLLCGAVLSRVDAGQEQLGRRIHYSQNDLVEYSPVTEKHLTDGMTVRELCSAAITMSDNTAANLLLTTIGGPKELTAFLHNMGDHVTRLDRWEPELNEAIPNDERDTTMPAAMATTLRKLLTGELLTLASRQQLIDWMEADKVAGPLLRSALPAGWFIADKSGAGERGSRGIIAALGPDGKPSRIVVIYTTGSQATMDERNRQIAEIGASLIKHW
Chain of UniProt P41143 (whole entry, looked up): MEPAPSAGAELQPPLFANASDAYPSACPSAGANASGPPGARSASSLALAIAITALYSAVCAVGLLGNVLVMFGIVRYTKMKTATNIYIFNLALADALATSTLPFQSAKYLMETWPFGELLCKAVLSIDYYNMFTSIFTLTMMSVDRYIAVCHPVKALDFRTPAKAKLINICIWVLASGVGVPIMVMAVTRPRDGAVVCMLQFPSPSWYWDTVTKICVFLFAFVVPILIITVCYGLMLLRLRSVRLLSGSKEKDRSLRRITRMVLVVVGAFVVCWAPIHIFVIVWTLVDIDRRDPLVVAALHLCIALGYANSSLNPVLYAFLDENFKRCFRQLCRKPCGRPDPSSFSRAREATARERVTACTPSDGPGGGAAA
Chain of UniProt P07948 (whole entry, looked up): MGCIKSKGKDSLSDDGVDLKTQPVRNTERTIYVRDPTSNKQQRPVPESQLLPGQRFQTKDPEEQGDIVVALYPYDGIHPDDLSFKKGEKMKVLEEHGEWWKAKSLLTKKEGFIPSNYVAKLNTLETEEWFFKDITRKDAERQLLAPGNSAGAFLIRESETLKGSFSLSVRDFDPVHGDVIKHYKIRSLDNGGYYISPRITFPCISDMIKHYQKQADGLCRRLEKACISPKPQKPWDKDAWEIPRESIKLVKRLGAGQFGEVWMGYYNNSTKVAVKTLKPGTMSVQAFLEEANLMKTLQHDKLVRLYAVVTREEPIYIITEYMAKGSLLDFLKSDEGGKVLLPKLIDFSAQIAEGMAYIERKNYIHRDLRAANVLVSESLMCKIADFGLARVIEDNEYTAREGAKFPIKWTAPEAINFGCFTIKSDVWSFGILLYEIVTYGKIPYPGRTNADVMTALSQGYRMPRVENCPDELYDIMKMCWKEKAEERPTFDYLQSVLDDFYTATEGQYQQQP
Chain of UniProt O15264 (whole entry, looked up): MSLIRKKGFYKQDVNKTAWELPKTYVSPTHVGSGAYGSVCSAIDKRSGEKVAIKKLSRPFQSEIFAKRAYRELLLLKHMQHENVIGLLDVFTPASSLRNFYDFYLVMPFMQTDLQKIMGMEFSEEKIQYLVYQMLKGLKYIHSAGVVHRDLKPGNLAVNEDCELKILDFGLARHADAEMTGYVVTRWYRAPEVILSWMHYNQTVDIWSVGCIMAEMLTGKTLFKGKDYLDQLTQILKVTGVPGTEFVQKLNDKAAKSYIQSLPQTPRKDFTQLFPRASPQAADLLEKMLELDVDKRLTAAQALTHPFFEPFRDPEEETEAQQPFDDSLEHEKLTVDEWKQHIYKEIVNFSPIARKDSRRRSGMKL

SMILES | target | assay | test system | setting | inhibition
O=C([O-])/C=C/C(O)c1ccc(Cl)cc1.[Na+] (stereo not drawn) | Genome polyprotein NS3 helicase domain | DNA binding, inhibitor | hepatitis C virus | 100 µM, together with: Cy5-dT15 DNA | 1%
CC1(C)Cc2cccc(OCC(=O)N3CCC(C(=O)Nc4ccc5c(c4)OCO5)CC3)c2O1 | Trypanothione synthetase | enzyme activity | – | 25 µM | 12.6 ± 15.1%
C[C@H](CCC(=O)O)[C@H]1CC[C@H]2[C@@H]3[C@@H](O)C[C@@H]4C[C@H](O)CC[C@]4(C)[C@H]3CC[C@]12C | gag nucleocapsid protein p7 | NCp7-RNA binding, AlphaScreen | HIV-1 | 45 µM | > 50%
COc1cc(Nc2ncc(F)c(Nc3ccc4c(n3)NC(=O)C(C)(C)O4)n2)cc(OC)c1OC | PRPF4B (Homo sapiens, UniProt Q13523) | kinase binding, KINOMEscan | – | 10 µM | 26%
C[N+]1(C)CCC(OC(=O)C(O)(c2ccccc2)C2CCCC2)C1 (stereo not drawn) | gag nucleocapsid protein p7 | NCp7-RNA binding, AlphaScreen | HIV-1 | 45 µM | > 50%
CCNC(=O)[C@H]1O[C@@H](n2cnc3c(N)ncnc32)[C@H](O)[C@@H]1O | Genome polyprotein NS3 helicase domain | DNA binding, inhibitor | hepatitis C virus | 100 µM, together with: Cy5-dT15 DNA | 0%
FC(F)(F)c1cccc(Nc2nc(NCCOc3ccccc3)nc3[nH]cnc23)c1 | MAPK13 (Homo sapiens, UniProt O15264) | Z'-LYTE or Adapta | – | 5 µM | 7%
CN1CCN(c2cc(-c3ccncc3)c(-c3ccc4ccccc4c3)nn2)CC1 | PROKR2 (Homo sapiens, UniProt Q8NFJ6) | antagonist, FLIPR | – | 10 µM | 40.1%
COc1ccc(N2C(=O)N(c3c(C)cccc3Cl)Cc3cnc(Nc4ccc(C5CCN(C)CC5)cc4OC)nc32)nc1 | PAK2 (Homo sapiens, UniProt Q13177) | kinase activity | – | 0.5 µM | 10%
O=C(Nc1cccnn1)N1CCC(=Cc2cccc(Oc3ccc(C(F)(F)F)cn3)c2)CC1 | OPRD1 (Homo sapiens, UniProt P41143) | radioligand binding, inhibitor | – | 10 µM, human, together with: [3H]naltrindole | 14%
C#Cc1n[nH]c2c(-c3cn(C(C)c4ccccn4)c(=O)[nH]c3=O)cc(F)cc12 (stereo not drawn) | human FLT3 ITD mutant | kinase activity, inhibitor | – | 1 µM | -17.3%
Cl.Clc1ccc(N2CCN(Cc3c[nH]c4ncccc34)CC2)cc1 | Genome polyprotein NS3 helicase domain | DNA binding, inhibitor | hepatitis C virus | 100 µM, together with: Cy5-dT15 DNA | 12%
CN(C(=O)n1cnc(-c2ccc[n+]([O-])c2)c1)C1CCCCC1 | KATP channel, hamster | binding | – | 50 µM, together with: [3H]glyburide | -6%
NC(N)=NOCC[C@H](N)C(=O)O | Genome polyprotein NS3 helicase domain | DNA binding, inhibitor | hepatitis C virus | 100 µM, together with: Cy5-dT15 DNA | 0%
O=C(CCCCCCc1ccccc1)c1ncc(-c2ccccn2)o1 | recombinant FAAH (rat) | enzyme activity | – | 100 nM, 3 h, 22 °C, before dialysis | ~80%
Cn1cccc1-c1cccnc1 | HTR6 (Homo sapiens, UniProt P50406) | binding | – | 50 µM | 1.38%
CC[C@H](C)[C@H](NC(=O)[C@@H](NC(=O)[C@H](N)Cc1ccccc1)C(C)C)C(=O)N[C@@H](C)C(N)=O | APP (Homo sapiens, UniProt P05067) | amyloid-beta aggregation, thioflavin T fluorescence | – | 0.5 µM, 72 h, together with: 2 µM amyloid-beta | 70.3%
O=C(O)c1cc[c]([Hg][Cl])cc1 | Beta-lactamase TEM (bla, Escherichia coli, UniProt P62593) | inhibitor | – | concentration not given | no inhibition
O=C(O)c1cc[c]([Hg][Cl])cc1 | Trypanothione synthetase | enzyme activity | – | 25 µM | 1.6 ± 14.1%
CN1C2CCC1CC(OC(=O)c1c[nH]c3ccccc13)C2.Cl (stereo not drawn) | Genome polyprotein NS3 helicase domain | DNA binding, inhibitor | hepatitis C virus | 100 µM, together with: Cy5-dT15 DNA | 0%
C[C@H](C(=O)N[C@H]1COc2ccccc2[C@@H]1S(C)(=O)=O)c1ccc(F)cc1 | Tyrosine-protein kinase Lyn, isoform B (LYN, Homo sapiens, UniProt P07948) | enzyme activity | – | 10 µM, Eurofins selectivity panel | 1%
N#CC(C#N)=Cc1ccc(O)c(O)c1 | Genome polyprotein NS3 helicase domain | DNA binding, inhibitor | hepatitis C virus | 100 µM, together with: Cy5-dT15 DNA | 0%
O=C(Nc1cnccc1Cl)N1CCN(Cc2ccc3c(c2)OC(F)(F)O3)CC1 | GABA transporter, rat | binding | – | 50 µM, together with: [3H]GABA | 4%
Br.CCCN(CCC)C1CCc2cccc(O)c2C1 (racemic) | Genome polyprotein NS3 helicase domain | DNA binding, inhibitor | hepatitis C virus | 100 µM, together with: Cy5-dT15 DNA | 2%
CC(=O)NC[C@H]1[C@H](O)[C@H](O)[C@@H]2[C@H](O)C[C@@H](CO)N21 | Spodoptera litura β-N-acetylglucosaminidase | – | crude enzyme | 0.00157 µM, run 1, together with: p-nitrophenyl GlcNAc | 13.1%
CN(N=O)c1ccc(O)c(O)c1 | Genome polyprotein NS3 helicase domain | DNA binding, inhibitor | hepatitis C virus | 100 µM, together with: Cy5-dT15 DNA | 27%
O=C(N1CCC2(CC1)C[C@H](CN1CCCCS1(=O)=O)CCO2)C1(c2ccccc2)CCCC1 | Interferon-induced helicase C domain-containing protein 1 (IFIH1, Homo sapiens, UniProt Q9BYX4) | ATPase activity | – | 50 µM | 0%

Repeated from above:
SMILES | target | assay | test system | setting | inhibition
N#CC(C#N)=Cc1ccc(O)c(O)c1 | Genome polyprotein NS3 helicase domain | DNA binding, inhibitor | hepatitis C virus | 100 µM, together with: Cy5-dT15 DNA | 0%
Cn1cccc1-c1cccnc1 | HTR6 (Homo sapiens, UniProt P50406) | binding | – | 50 µM | 1.38%
COc1cc(Nc2ncc(F)c(Nc3ccc4c(n3)NC(=O)C(C)(C)O4)n2)cc(OC)c1OC | PRPF4B (Homo sapiens, UniProt Q13523) | kinase binding, KINOMEscan | – | 10 µM | 26%
O=C([O-])/C=C/C(O)c1ccc(Cl)cc1.[Na+] (stereo not drawn) | Genome polyprotein NS3 helicase domain | DNA binding, inhibitor | hepatitis C virus | 100 µM, together with: Cy5-dT15 DNA | 1%
